# Measured values pooled from the literature.
# Compare with care: the assays were run in different laboratories. Values joined by “and” are separate records of one study, mostly repeats; a detail may differ. ± marks the error that the study gave.
SMILES,test,system,setting,scale,endpoint,value
CC(C)n1c(C2CCNCC2)nc2c([N+](=O)[O-])c(Br)c(Br)cc21,refers to: Asthenia,AML patients,"dose not given, all doses",,related grade ≥3 adverse events,3%
C[C@]1(CO)Cc2ncn(-c3ccc(C#N)c(Cl)c3)c2C(=O)O1,,human,5 mg single dose,,subjects with drug-related dysgeusia,0%
NC(=O)[C@H]1CCN(c2ncnc(N)c2F)C[C@@H]1N1CCC[C@@H](Nc2cc(Cl)cc(C(F)(F)F)c2)C1=O,,B-cell malignancy patients,"oral, 328 mg twice daily, dose",,grade ≥3 anaemia,0%
COc1ccc(C[C@@H]2NC(=O)[C@H]([C@@H](C)O)NC(=O)[C@@H]3[C@@H]4CCN3C(=O)[C@@H]3Cc5cn(c6ccc(F)cc56)CCCCCCN(Cc5ccc(cc5)CCNC(=O)[C@]5(C)CCCN5C2=O)C(=O)CCC(=O)N[C@@H](C)C(=O)N[C@H](CNC(=O)CCCCC[N+](C)(C)C)C(=O)N[C@@H](Cc2cccc(c2)CNC(=O)CO4)C(=O)N3)cc1,refers to: skin irritation,human,Study-003 safety,,adverse events,6.5%
CCc1ccc(CC/C=C/c2ccc3c(c2)C(=O)CC3)cc1,,"Sprague-Dawley rat, male","oral, 120 mg/kg/day, 14 days",,TC,1.86 mM
CN[C@@H](C)C(=O)N[C@H]1CN(S(=O)(=O)c2cccc(S(=O)(=O)N3CC[C@H]4CC[C@@H](C(=O)NC(c5ccccc5)c5ccccc5)N4C(=O)[C@@H](NC(=O)[C@H](C)NC)C3)c2)CC[C@H]2CC[C@@H](C(=O)NC(c3ccccc3)c3ccccc3)N2C1=O,,patients with advanced solid tumours,"7 mg, phase I monotherapy",,treatment-related facial nerve disorder incidence,0%
O=c1cc(-c2ccc(O)c(O)c2)oc2cc(O)cc(O)c12,,"Sprague-Dawley rat, male, lean, faeces","oral, 100 mg/kg neohesperidin, 48 h",baseline: dose,faecal recovery,0.027 ± 0.02%
O=C(c1ccc(F)c(F)c1Nc1ccc(I)cc1F)N1CC(O)([C@@H]2CCCCN2)C1,,human patients,"oral, dose not given, dose escalation, tablet",,adverse events,100%
O=S(=O)(Nc1ccccc1)c1ccc(NC(=S)Nc2ccccc2)cc1,refers to: EO%,"female mouse, blood","oral, 5 mg/kg daily, 14 days",,blood cell fraction,0.67%
COc1ccc(-c2c(-c3ccc(C#N)c(F)c3)nc(N3CCC(N)CC3)n(C)c2=O)cc1F,refers to: Hematemesis,human patients,"oral, 60 mg, dose expansion",,serious adverse event incidence,0%
O=C1Nc2cc3[nH]nc(-c4ccncc4)c3cc2CN1Cc1ccccc1,refers to: dermatitis acneiform,patients with advanced solid tumours,"intravenous, dose not given, both schedules pooled",,patients with TEAE,18%
COc1cc2c(Oc3ccc4[nH]c(C)cc4c3F)ccnc2cc1OCC1(N)CC1,,paediatric refractory sarcoma patients,12 mg,,grade 3 QTc prolongation,0%
CO[C@H]1C[C@@H]2CC[C@@H](C)[C@@](O)(O2)C(=O)C(=O)N2CCCC[C@H]2C(=O)O[C@H]([C@H](C)C[C@@H]2CC[C@@H](OC(=O)NCCOCCOCCOCCOCCOCCOCCOCCOCCC(=O)N3CCc4cc(Cn5nc(-c6ccc7oc(N)nc7c6)c6c(N)ncnc65)ccc4C3)[C@H](OC)C2)C[C@@H](O)[C@H](C)/C=C(\C)[C@@H](O)[C@@H](OC)C(=O)[C@H](C)C[C@H](C)/C=C/C=C/C=C/1C,,patients with advanced solid tumours,"intravenous, 16 mg weekly, any grade",,mucositis incidence,75%
COc1cc2nccc(Oc3ccc(NC(=O)c4cc5c(n(-c6ccccc6)c4=O)CCCC5=O)nc3)c2cc1OC,,relapsed/refractory AML patients,"oral, 10 mg once daily",,fatal drug-related TEAEs,0%
CC(C)C[C@H](NC(=O)[C@H](CCCCN)NC(=O)OCC1c2ccccc2-c2ccccc21)C(=O)N[C@H](C(=O)N[C@@H](Cc1ccccc1)C(=O)N[C@@H](Cc1ccccc1)C(=O)N[C@@H](CCCCN)C(=O)NCC(=O)N[C@@H](Cc1ccccc1)C(=O)N[C@@H](C)C(=O)N[C@@H](Cc1c[nH]c2ccccc12)C(=O)N[C@@H](CC(N)=O)C(=O)N[C@H](C(=O)N[C@H]1CSSC[C@@H](C(=O)N[C@@H](Cc2c[nH]cn2)C(=O)N[C@@H](CCCNC(=N)N)C(=O)N[C@@H](CCCNC(=N)N)C(=O)N[C@@H](C)C(=O)N[C@@H](CC(N)=O)C(N)=O)NC(=O)[C@H](C(C)C)NC(=O)[C@H](CCCNC(=N)N)NC(=O)[C@H](C(C)C)NC(=O)CNC(=O)[C@H](CC(N)=O)NC(=O)[C@H](CCCNC(=N)N)NC(=O)[C@H](Cc2ccc(O)cc2)NC(=O)[C@H](C(C)C)NC1=O)C(C)C)C(C)C,HPLC,trypsin buffer,"6.00 h, 37 °C, with: trypsin 1 % w/v",,peptide remaining,47.5% and 43.3% and 41.9%
CCN(CCO)CCCC(C)Nc1ccnc2cc(Cl)ccc12 (stereo not shown),refers to: Headache grade 1,newly diagnosed glioblastoma patients,"oral, 200 mg/dose, with radiotherapy and temozolomide",,patients with adverse event,66%
Cc1cccc(Cn2nc(C3CC3)c3c(NC(=O)c4cnc5cc(OCCN6CCN(C)CC6)ccn45)cccc32)n1,refers to: Vomiting,human advanced solid tumours,"oral, 400 mg, all-causality",,adverse events incidence,14.3%
O=C(O)CCCOc1ccc(F)cc1-c1cc(-c2ccccc2C(F)(F)F)n(-c2ccccc2)n1,,"female Crl:CD(SD) rats, kidneys","intravenous, 25 µg/kg, 1 d",,organ weight,1.69 ± 0.1 g
CCCCCCCCCCCCCCCC(=O)N[C@@H](CCC(=O)NCCCC[C@H](NC(=O)[C@H](CC(=O)O)NC(=O)[C@H](CO)NC(=O)[C@@H](NC(=O)[C@H](Cc1ccccc1)NC(=O)[C@@H](NC(=O)CNC(=O)[C@H](CCC(N)=O)NC(=O)[C@H](CO)NC(=O)[C@@H](N)Cc1c[nH]cn1)[C@@H](C)O)[C@@H](C)O)C(=O)N[C@@H](CO)C(=O)N[C@@H](CCC(=O)O)C(=O)N[C@@H](Cc1ccc(O)cc1)C(=O)N[C@@H](CC(C)C)C(=O)N[C@@H](CC(=O)O)C(=O)N[C@@H](CO)C(=O)N[C@@H](CCC(=O)O)C(=O)N[C@@H](CCCNC(=N)N)C(=O)N[C@@H](C)C(=O)N[C@@H](CCCNC(=N)N)C(=O)N[C@@H](CC(=O)O)C(=O)N[C@@H](Cc1ccccc1)C(=O)N[C@H](C(=O)N[C@@H](C)C(=O)N[C@@H](Cc1c[nH]c2ccccc12)C(=O)N[C@@H](CC(C)C)C(=O)N[C@@H](CCC(=O)O)C(=O)N[C@@H](C)C(=O)NCC(=O)NCC(=O)O)C(C)C)C(=O)O,,"human, CrCl ≥20 to <30 mL/min","sc, 100 µg single dose",,injection site erythema,0%
Fc1ccc([C@@H]2CCNC[C@H]2COc2ccc3c(c2)OCO3)cc1,refers to: Dyspepsia,healthy volunteers,"oral, dose not given, given -1 h relative to LSD, with: LSD",direction not given,List of Complaints score,0 score
COc1ccc2c(c[n+](C)c3c4cc5c(cc4ccc23)OCO5)c1OC,LC-MS/MS,"rat, plasma",dose not given,,CL/F,2.25 mL/min/kg
COc1ncccc1-c1cnn2ccc(N3CCN(C(=O)OC(C)C)CC3)nc12,,"mouse nerve ligation model, brain","oral, 3 mg/kg, 30 min after last dose, repeat dosing day 2",,drug concentration,3.9 µM
C[C@]1(O)C[C@@](N)(c2ccc(-c3nc4n(c3-c3ccccc3)COc3ccncc3-4)cc2)C1,,"human, advanced or metastatic solid tumours","dose not given, all patients",,patients with grade ≥3 Fatigue TEAE,5.9%
O=C(Nc1ccccc1)C1CCN(C(=O)Oc2cccnc2)CC1,adverse event reporting,healthy women,"oral, 60 mg, 7 days",,subjects with cold sweat,0%
CN1CC[C@@H](c2c(O)cc(O)c3c(=O)cc(-c4ccc(C(F)(F)F)cc4Cl)oc23)[C@@H]1CO,refers to: Anemia,B-cell malignancies or AML,"oral, 50 mg, continuous dosing",,patients with adverse event,25%
C[C@@H]1OC(=O)NN=C1c1ccc(-c2ccc(F)cc2)c(C(F)(F)F)c1,"phase I trial, refers to: alkaline phosphatase increased",human patients,"10 mg load, 0.5 mg daily, all grades",,patients with TEAE,0%
CC(=O)c1c(C)c2cnc(Nc3ccc(C4CCN(CCS(C)(=O)=O)CC4)cn3)nc2n(C2CCCC2)c1=O,,HR+/HER2- advanced breast cancer patients,"oral, 50 mg, dose escalation",,patients with serious adverse reactions,0%
CC(C)[C@@H]1NC(=O)CNC(=O)[C@H](CC(N)=O)NC(=O)[C@H](CCCNC(=N)N)NC(=O)[C@H](Cc2ccc(O)cc2)NC(=O)[C@H](C(C)C)NC(=O)[C@@H](NC(=O)[C@@H](NC(=O)[C@H](CC(N)=O)NC(=O)[C@H](Cc2c[nH]c3ccccc23)NC(=O)[C@H](C)NC(=O)[C@H](Cc2ccccc2)NC(=O)CN)C(C)C)CSSC[C@@H](C(=O)N[C@@H](Cc2cnc[nH]2)C(=O)N[C@@H](CCCNC(=N)N)C(=O)N[C@@H](CCCNC(=N)N)C(=O)N[C@@H](C)C(=O)N[C@@H](CC(N)=O)C(N)=O)NC(=O)[C@H](C(C)C)NC(=O)[C@H](CCCNC(=N)N)NC1=O,,"ICR mouse, blood","intramammary, 5 mg/kg, day 5, 3 d dosing",,haemoglobin,126 ± 5.88 g/L

# Some of these lines once more:
SMILES,test,system,setting,scale,endpoint,value
O=S(=O)(Nc1ccccc1)c1ccc(NC(=S)Nc2ccccc2)cc1,refers to: EO%,"female mouse, blood","oral, 5 mg/kg daily, 14 days",,blood cell fraction,0.67%
COc1ccc(-c2c(-c3ccc(C#N)c(F)c3)nc(N3CCC(N)CC3)n(C)c2=O)cc1F,refers to: Hematemesis,human patients,"oral, 60 mg, dose expansion",,serious adverse event incidence,0%
O=C1Nc2cc3[nH]nc(-c4ccncc4)c3cc2CN1Cc1ccccc1,refers to: dermatitis acneiform,patients with advanced solid tumours,"intravenous, dose not given, both schedules pooled",,patients with TEAE,18%
